Measured values of several laboratories.
Numbered parts are unrelated; each lists some results of a single study. Changes are numbered by the printed parent chain.

Block 1
Target: Protein C-ets-1 (ETS1, Homo sapiens, UniProt P14921, residues 1-441, full length assumed)
Method: protein-binding microarray
Molecule type: double-stranded DNA, one strand shown
Medium: in vitro
Tested at: not given
Notes: k-mer, scored over probes, only values ≥0.25
Direction: higher = stronger binding
Endpoint: E-score
Construct (chain): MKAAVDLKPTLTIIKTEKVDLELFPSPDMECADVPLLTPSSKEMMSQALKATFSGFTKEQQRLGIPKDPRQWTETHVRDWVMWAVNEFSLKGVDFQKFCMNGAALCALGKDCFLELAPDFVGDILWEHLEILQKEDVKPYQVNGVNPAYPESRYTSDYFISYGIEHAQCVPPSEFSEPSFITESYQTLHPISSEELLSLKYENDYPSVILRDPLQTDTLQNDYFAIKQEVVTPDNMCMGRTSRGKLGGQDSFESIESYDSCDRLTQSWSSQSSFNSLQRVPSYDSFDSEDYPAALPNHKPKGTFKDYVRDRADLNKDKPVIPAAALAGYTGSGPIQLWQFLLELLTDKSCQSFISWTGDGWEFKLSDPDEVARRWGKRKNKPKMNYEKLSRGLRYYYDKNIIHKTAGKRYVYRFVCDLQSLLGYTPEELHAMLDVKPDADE
AACGTCCG: 0.442
CCGGGAGG: 0.316
CCCGGAAG: 0.487
AGGACGGA: 0.281
CGGATGTA: 0.483
CACGGATG: 0.406
GTCCGGGA: 0.289
CGGGTTCC: 0.319

Block 2
Target: Interferon regulatory factor 7, full length, phosphomimetic (IRF7, Homo sapiens, UniProt Q92985, residues 1-503, S101K/S471D/S472D/S475D/S476D/S477D/S483D/S484D/S487D)
Chain of UniProt Q92985 (whole entry, unmodified, looked up): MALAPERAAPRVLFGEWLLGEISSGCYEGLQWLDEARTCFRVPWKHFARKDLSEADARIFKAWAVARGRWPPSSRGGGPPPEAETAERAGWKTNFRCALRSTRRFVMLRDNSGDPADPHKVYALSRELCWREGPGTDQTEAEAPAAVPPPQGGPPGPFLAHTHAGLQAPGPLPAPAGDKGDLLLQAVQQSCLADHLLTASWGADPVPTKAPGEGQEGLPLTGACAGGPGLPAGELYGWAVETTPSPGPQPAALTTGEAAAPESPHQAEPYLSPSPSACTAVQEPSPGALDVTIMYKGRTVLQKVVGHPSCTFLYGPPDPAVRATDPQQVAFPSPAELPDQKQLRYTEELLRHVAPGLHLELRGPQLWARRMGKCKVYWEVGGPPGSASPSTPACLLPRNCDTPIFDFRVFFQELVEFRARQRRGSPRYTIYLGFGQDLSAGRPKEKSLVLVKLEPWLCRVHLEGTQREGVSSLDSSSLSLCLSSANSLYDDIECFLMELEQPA
Method: protein-binding microarray
Molecule type: double-stranded DNA, one strand shown
Medium: in vitro
Tested at: 250 nM
Notes: 60-bp whole probe
With: salmon DNA 0.4 mg/ml
Reference: random background probes
Direction: higher = stronger binding
Endpoint: log fluorescence
Constant ends, left off below: GCCTAGCAC … GTCTTGATTCGCTTGACGCTGCTG
TTAGATCTCAGTTCCGATTAGTGCTAG: 1.21 z-score
GACGATGTCGGGACTGGAGACGTGCTA: -0.69 z-score
CTTTAACTCATTCTCCACTTGTGCTAG: 1.02 z-score
TTAGTACTGGGGACTGGGTTAGTGCTA: 0.101 z-score
TCAAATATATATATTATACTGTGCTAG: 0.386 z-score
TCAGTTACCCACCTCAGACTGTGCTAG: 0.414 z-score
TTAGGTTTGCTTATCCTTTAGTGCTAG: 0.402 z-score
TTAGACCTGAGTCTCGATTAGTGCTAG: 1.06 z-score

Block 3
Target: Probable WRKY transcription factor 50, DNA-binding domain (WRKY50, Arabidopsis thaliana, UniProt Q8VWQ5, residues 99-173)
Method: DNA-protein interaction ELISA
Molecule type: double-stranded DNA, one strand shown
Medium: in vitro, bacterial lysate
Tested at: not given
Notes: whole dsDNA probe, crude lysate protein
Reference: highest signal in screen
Direction: higher = stronger binding
Endpoint: relative absorbance
Target sequence (chain): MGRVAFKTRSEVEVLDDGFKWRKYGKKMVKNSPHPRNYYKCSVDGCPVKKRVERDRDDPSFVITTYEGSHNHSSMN
AAAAAAGTTCGTGCTTAACCCAGTTTAAAA: 25.5 % of maximum
AAAAAACGTATTGATGTCTATTTCAAAAAA: 11.3 % of maximum
AAAAAAAAATCGAATTTGGACTTCCGAAAA: 22.3 % of maximum
AAAAAAGGCTGTGGCCAATGTTCGTAAAAA: 12.3 % of maximum
AAAAAAGGAAAACGAGTTCATCTGGTAAAA: 20.5 % of maximum
AAAAAATGCAGACCTTCAGCTGGGTAAAAA: 16.3 % of maximum
AAAAAAGGGTCGCTGTGAGCTCATGAAAAA: 10.5 % of maximum
AAAAAATTGGCACACATGATCTCGGGAAAA: 8.37 % of maximum

Further values, each from its own experiment
Starting sequence: PafA, mature enzyme, eGFP fusion (Elizabethkingia meningoseptica, UniProt Q9KJX5); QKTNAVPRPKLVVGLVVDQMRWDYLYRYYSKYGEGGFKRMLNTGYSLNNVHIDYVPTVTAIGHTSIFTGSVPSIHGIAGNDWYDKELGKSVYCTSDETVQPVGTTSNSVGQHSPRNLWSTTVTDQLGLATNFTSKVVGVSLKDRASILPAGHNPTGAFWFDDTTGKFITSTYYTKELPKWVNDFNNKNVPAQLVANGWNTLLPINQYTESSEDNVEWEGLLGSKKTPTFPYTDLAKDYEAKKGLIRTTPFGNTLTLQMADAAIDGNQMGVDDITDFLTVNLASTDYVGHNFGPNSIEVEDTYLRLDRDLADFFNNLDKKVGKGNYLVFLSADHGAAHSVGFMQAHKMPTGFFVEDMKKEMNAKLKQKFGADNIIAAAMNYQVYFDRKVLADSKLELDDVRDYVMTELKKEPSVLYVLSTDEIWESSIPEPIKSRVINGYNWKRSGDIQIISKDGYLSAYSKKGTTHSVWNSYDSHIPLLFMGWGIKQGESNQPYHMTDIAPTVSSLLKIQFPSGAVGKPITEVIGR
N361V
phosphate dissociation constant (inorganic phosphate, free oxyanion; microfluidic competitive inhibition; in vitro, cell-free expressed; not given, derived from inhibition constants, unchanged parent 615000 nM; lower = stronger binding): 544 µM

Excerpt of the above (block 2):
CTTTAACTCATTCTCCACTTGTGCTAG: 1.02 z-score
TCAGTTACCCACCTCAGACTGTGCTAG: 0.414 z-score
